Published values pooled from the literature.
Numbered parts are unrelated; each lists some results of a single study. Changes are numbered by the printed parent chain.

Study 1
Target: Interferon regulatory factor 7, full length, phosphomimetic (IRF7, Homo sapiens, UniProt Q92985, residues 1-503, S101K/S471D/S472D/S475D/S476D/S477D/S483D/S484D/S487D)
Method: protein-binding microarray
Form: double-stranded DNA, one strand shown
Matrix: in vitro
Tested at: 250 nM
Notes: 60-bp whole probe
With: salmon DNA 0.4 mg/ml
Baseline: random background probes
Reading: higher = stronger binding
Measurement: log fluorescence
Shared flanks, not repeated: GCCTAGCAC … GTCTTGATTCGCTTGACGCTGCTG
Target sequence (chain): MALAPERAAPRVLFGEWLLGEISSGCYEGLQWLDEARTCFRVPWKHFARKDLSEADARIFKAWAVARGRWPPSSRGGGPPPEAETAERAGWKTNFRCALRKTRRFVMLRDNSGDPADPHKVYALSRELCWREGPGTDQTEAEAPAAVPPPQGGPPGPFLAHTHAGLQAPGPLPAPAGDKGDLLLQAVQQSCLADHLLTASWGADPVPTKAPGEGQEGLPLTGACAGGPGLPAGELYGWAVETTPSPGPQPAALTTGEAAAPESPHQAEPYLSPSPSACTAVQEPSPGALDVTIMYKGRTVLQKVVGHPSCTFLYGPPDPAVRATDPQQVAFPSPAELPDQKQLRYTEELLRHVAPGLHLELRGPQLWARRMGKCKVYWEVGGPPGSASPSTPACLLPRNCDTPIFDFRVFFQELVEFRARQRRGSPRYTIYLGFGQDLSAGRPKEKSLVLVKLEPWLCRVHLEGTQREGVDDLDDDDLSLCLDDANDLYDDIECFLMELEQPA
ACCCATTGAGATTTCCATTAGTGCTAG: -0.00545 z-score
TTAGATATCGGGTATCGCTTAGTGCTA: 0.22 z-score
GACGGTGTCGGGACTGGGGACGTGCTA: -0.66 z-score
TTAGATTTCAGTTCCGATTGGTGCTAG: 2.01 z-score
GACGGACTGGGTTTAGGGACGTGCTAG: -0.421 z-score
GACGGTTTCGGGTTTCCGGACGTGCTA: 11.7 z-score
GACGATTTCGGTCTCGAGACGTGCTAG: 1.08 z-score
AGACATGACACCACTCCTGAGTGCTAG: -0.391 z-score
TCTGTTTTTGCTTTCCTTCAGTGCTAG: 2.19 z-score
GACGAACTGAGTATCGACACGTGCTAG: -0.0513 z-score
TTAGGTTACGACTATCGGTTAGTGCTA: 0.193 z-score
GACGGTTTCGGGTTACGGGACGTGCTA: 12.8 z-score
TTAGATATCAGTATCGATCAGTGCTAG: 0.15 z-score
TTAGGTTTCCTTGCCCTTTAGTGCTAG: 0.733 z-score
TAGCGTATATTCCCTAGAATAGTGCTA: -0.167 z-score
GACGCTATCAGTTTCGAGACGTGCTAG: 3.24 z-score
GAGGAACTGAGTCTCGAGACGTGCTAG: 0.297 z-score
TTAGATATCGGGTAACGATTAGTGCTA: 0.0052 z-score
AACATACTCGTTTACATTTTGTGCTAG: 1.52 z-score
GACGTTATCGGTATCGGGACGTGCTAG: 0.488 z-score

Study 2
Target: CCNE2, cyclin fold, Cln2 fusion (human)
Method: yeast growth competition, sequencing
Matrix: yeast
Notes: weak parent motif
Baseline: not given
Reading: higher = stronger binding
Measurement: normalised enrichment score
Parent: RP1L1 docking peptide (human); TLGLGPLSFTLED; partner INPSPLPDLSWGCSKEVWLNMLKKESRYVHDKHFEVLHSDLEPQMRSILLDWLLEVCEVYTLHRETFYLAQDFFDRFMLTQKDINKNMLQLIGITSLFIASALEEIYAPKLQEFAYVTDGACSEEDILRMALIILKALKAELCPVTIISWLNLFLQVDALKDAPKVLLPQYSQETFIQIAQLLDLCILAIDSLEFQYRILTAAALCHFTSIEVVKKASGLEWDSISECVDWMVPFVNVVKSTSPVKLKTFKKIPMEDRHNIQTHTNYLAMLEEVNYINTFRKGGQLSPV
ALGLGPLSFTLED [T1A]: -0.076
TLGLGPLAFTLED [S8A]: -0.156
TAGLGPLSFTLED [L2A]: -0.256
TLGAGPLSFTLED [L4A]: -0.299
TLGLGPLSATLED [F9A]: 0.0858
TLGLGALSFTLED [P6A]: -0.0733

Study 3
Target: ABI1, truncated, D143A, DHFR fusion (Arabidopsis thaliana)
Method: DHFR PCA, deep sequencing
Matrix: yeast
Notes: methotrexate growth selection, single substitutions
With: (+)-ABA 4.8 µM
Baseline: wild-type fitted maximum
Reading: higher = stronger binding
Measurement: relative binding score
Parent: PYL1, truncated, DHFR fusion (Arabidopsis thaliana); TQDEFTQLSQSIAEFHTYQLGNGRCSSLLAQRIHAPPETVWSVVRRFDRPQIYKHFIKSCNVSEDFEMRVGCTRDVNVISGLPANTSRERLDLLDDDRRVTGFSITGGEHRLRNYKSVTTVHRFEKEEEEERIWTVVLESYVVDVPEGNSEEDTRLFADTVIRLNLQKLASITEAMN; partner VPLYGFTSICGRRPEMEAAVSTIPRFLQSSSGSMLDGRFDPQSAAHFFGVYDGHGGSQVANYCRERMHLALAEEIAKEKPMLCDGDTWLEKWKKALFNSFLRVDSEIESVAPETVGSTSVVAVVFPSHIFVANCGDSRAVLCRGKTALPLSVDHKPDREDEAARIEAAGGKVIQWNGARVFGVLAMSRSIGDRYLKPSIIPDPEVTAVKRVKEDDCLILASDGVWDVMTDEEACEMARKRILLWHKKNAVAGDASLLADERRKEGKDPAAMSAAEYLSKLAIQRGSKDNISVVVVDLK
Q51C: 25%
D92L: 1.5%
N77K: 83.9%
E125D: 71.1%
E128H: 73.8%
P50I: -13.7%
L20H: 77.1%
K116Y: -14.4%
L138I: 26.3%
R74L: -2.49%
K58I: 4.41%
I12V: 57.6%
L82K: -8.17%
S63R: 69.7%

Study 4
Target: Myc proto-oncogene protein, bHLH-zipper, MAX partner unstated (MYC, Homo sapiens, UniProt P01106, residues 368-449)
Chain of UniProt P01106 (368-449, looked up): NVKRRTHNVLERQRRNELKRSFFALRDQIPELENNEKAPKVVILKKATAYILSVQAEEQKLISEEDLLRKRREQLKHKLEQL
Method: protein-binding microarray
Form: double-stranded DNA, one strand shown
Matrix: in vitro
Tested at: not given
Notes: k-mer, scored over probes, only values ≥0.25
Reading: higher = stronger binding
Measurement: E-score
CGTCCGCA: 0.256
CGTGTCAG: 0.341
CCATCTGC: 0.3
ATCCGCAC: 0.255
ACGAGGGA: 0.36
CCACGTGG: 0.499
ATGCGGGC: 0.309
ATGCTTTG: 0.264
ACCTCGCC: 0.273

Study 5
Target: Histone acetyltransferase KAT6A, winged helix 1, GST fusion (KAT6A, Homo sapiens, UniProt Q92794, residues 1-85)
Method: protein binding microarray
Form: double-stranded DNA, one strand shown
Matrix: in vitro
Tested at: not given
Notes: 8-mer, flanks averaged, mean of 2 arrays, mostly near background
Baseline: not given
Reading: higher = stronger binding
Measurement: E-score
Construct (chain): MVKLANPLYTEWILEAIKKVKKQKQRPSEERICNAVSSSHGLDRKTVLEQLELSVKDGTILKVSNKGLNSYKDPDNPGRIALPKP
CCCTCACA: -0.139
GCATCCAA: -0.161
GCTACGAA: -0.0121
AACTGATT: -0.133
CGACCGTA: 0.202
AGCCCTAG: -0.188
GATCTAAC: -0.117
CAATCACA: -0.216
AAAAGGGT: -0.112
GTACGCAC: 0.254
AATCTTGT: -0.257
GCAACAAA: -0.23
GGTTCAAC: 0.124
CAGCAATG: -0.212
ACTTGGCC: -0.046
ATATAAAG: -0.109
ACAATTGT: -0.126
CTGAAGAA: -0.00359
CATCTTTA: -0.0595
AGTGGCCA: -0.251
CCATTACG: 0.0802
CAAGACTC: -0.0505
GAGAACAC: -0.152
AGTATTTG: -0.229

Study 6
Target: RNA binding protein fox-1 homolog 2, RRM domain, GST-SBP tag (RBFOX2, Homo sapiens, UniProt O43251-10, residues 100-194)
Method: RNA Bind-n-Seq
Form: RNA
Matrix: in vitro
Tested at: 365 nM
Notes: natural RNA segment, single round, ends assumed
Baseline: no-protein control
Reading: higher = stronger binding
Measurement: RBNS enrichment (R)
Shared flanks, not repeated: GGGAGUUCUACAGUCCGACGAUC … UGGAAUUCUCGGGUGCCAA
Target sequence (chain): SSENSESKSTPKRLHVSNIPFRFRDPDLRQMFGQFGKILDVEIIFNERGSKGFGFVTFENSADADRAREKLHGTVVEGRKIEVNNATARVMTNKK
UUCUGAGGCCAUCUGCAGAAAGUCCCCUGUGCCUUCUUUGGGAAGUCUCUUGUCAAUCCACAAGAACAAUGCAAAGUUAUGUUUGGGAACACUACAGGAAUAUGUAAUUG: 0.234
UUCCUCAACCCCCAAACAAAACAAACAAACUUCCCUGGCUUCGCACCUGCCUGGGGCCUCGCAGCGGGGCCAGGGCUCCGCCUGCUGAUCGGGGGUUGUGAGCAGCGCGG: 1.09
CCAGCCCCCUAGGAACGUGUUACUAGCUCCUAAUAGCUUGGUUGAAGCUCCUUGGCCUCUGAGGACCCCUAAUAACCCAGAAUCUUGGGGAGCCCUUUCCUUUGAGAAUA: 0.408
AUUGUCAUAGUACACCUGUAAAAAUGGUUGCACAUCAGAAGGGGCUUUGAAGCGCUUGUAUGUUGUUUGCCGGAGUCAUUGUAAUUUUUUUGUUUGUUUUUUUGGGCUUU: 1.97
AAAGCAAAUAUUAAGAUUUUUACUCAUUCAAGGCAAGUAAAUGAAUGGAAUUAUCUGAGCUCUAUGGCACUGGUUGUUUAGAGUGACUGAUGAAGUGCAACUUUCAAAAA: 0.412
ACAACAGGUGCUGGAGAGGAUGUGGAGAAAUAGGAACACUUUUACACUGUUGGUGGGACUGUAAACUAGUUCAACCAUUGUGGAAGUAAUCUUUUAAUGAUAUUUUCUUA: 0.274
CCUCUCUCUCCUCCUUUGACCUUCUCCUCGACCAGCCAUCAUGACAUUUACCAUGAAUUUACUUCCUCCCAAGAGUUUGGACUGCCCGUCAGAUUGUUGCUGCACAUAGU: 1.59
UUAUUCAGAAUUGUUUUGGUGAUACCUCACCCCUGUAAUCCCAGCACUUUGGGUGGGUGAGGCAGGCGGAUCACUUGAAGCCAGGACUUCAAGACCAGCUUGGCCAACAU: 0.641
CUCCAGAGGGCCAGCCUCUGCUGAGCGGGGGAAGUGGGCACUGACUACAGCAGGUGGAGAUGGUGCAGGGCGGGGUGAUGAGGUUAUAAAACUAUGGAACCUCCUCUGGC: 0.532
AAACAGAGAUCAGAUGAAGAUAACAAGCCAGAUGCUGGUCCUGAUGCUGCCGGCAAGGAGAGUGCAGCAAGAGAGAAAAUCCUCAGGGCUGAACCUGAGAUCUUGGAACU: 0.671
ACCUGUGCACAAGGGAAAUAACUUAGGCACUUUCGGAGUUUGUGUUUGUUUUGUUUUGUUUAAUAAGGUCCCAUGGCUUCUUUGGGAAUCCACGAUAAGAAAAACAACCC: 0.689
GAUAUUAAAAAAGUAGAAUAUUUUGUGUUUAUCUCCCACACAGCCCCAAAUUCUUUUGUUGUGUGUGCGAAGGGGGUUUUGCGCACUGUGCCAAGCCUUGUCCACUGGAA: 2.91

Study 7
Target: RING finger protein unkempt homolog, zinc fingers 1-6, SBP tag (UNK, Homo sapiens, UniProt Q9C0B0, residues 30-357)
Chain of UniProt Q9C0B0 (30-357, looked up): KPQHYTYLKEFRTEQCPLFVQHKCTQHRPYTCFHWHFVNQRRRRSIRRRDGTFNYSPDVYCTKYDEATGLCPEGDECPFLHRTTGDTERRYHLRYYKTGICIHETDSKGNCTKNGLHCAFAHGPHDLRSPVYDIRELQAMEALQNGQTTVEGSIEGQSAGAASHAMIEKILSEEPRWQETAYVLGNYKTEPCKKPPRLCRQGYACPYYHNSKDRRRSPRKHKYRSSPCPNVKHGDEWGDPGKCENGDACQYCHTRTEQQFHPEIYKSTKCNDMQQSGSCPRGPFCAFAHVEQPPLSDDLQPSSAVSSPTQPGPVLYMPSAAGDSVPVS
Method: RNA Bind-n-Seq
Form: RNA
Matrix: in vitro
Tested at: 100 nM
Notes: RNA with constant flanks, vertebrate orthologous sites, ends assumed
Baseline: input RNA pool
Reading: higher = stronger binding
Measurement: bound/input enrichment
Shared flanks, not repeated: GGGAGUUCUACAGUCCGACGAUC … CAACAGAGGAUUGAGCAUCA
UUGUAUAACAAUAAAGAAAUCCAAAAUGUUAUGUCUCCCUUUGCUUCUACCCCUCUGGUUUCUCUUCUCAAAGCGACGUUCCUGCGACGUGCACGAGCGUGCUCACAUGUUAUUAAAGCG: 0.295 ratio
CCUCAACUUGUGCUAGCUUGAAAUCCUUCAAAGUUGGGGUCAGGCAUUAGUGCUGGGUACUAGAAAAUUUGAUUUCUCUGUUGCCACCAACGAGAGACACAGAUGUUAAAAACAGAAAUA: 0.467 ratio
UCUUCCUUCCUUUUUUUCUUUUGUUCUUUUUUUUUCUUUUUCUUUUUCUUUUUUUUUGGUAGUUUGUUGUUACCCACGCCAUUUUACGUCUCCUUCACUGAAGGGCUAGAGUUUUAACUU: 3.09 ratio
UUACAGUCAUUGAUGGACUCUAUUUUUUUAUUAUUACUUGGACCUUGGUCGUUUUUAUACUAGCAAAAUGUCUUGUUUUAAUUUGUGUUUUUUGGGGGAGGGAGUGAACUUGCUGAUUCU: 2.51 ratio
CUACUCUAAACAACUCAGGGCAGUACUCUCGAUAUCCUUACAGUAACCUAAAUCAGGGAUUAGUUAACAAUACAGGGAUGAAUCAAAAUUUAGGCCUUACAAACAAUACUCCAAUGAACC: 1.75 ratio
UUAAAGCCAUUUUUUCAUGUUUCCUGUAAAUAAUGGAUAAUCAUUUUUUAUUUUAUUUUUAAGUGCUGUUUUAACAAUGUGGAUAGACCAUAAAUGUACUUGCUAAAAUCAUUCCUUUUU: 0.762 ratio
CAUUGUGUACAGAGGGGAGAUAUUAAAUAGUAUUUGUCUUCCUUUACCUUUUUUUUUUUGUCCCCUACUUUUUAAAAUUUCAAACUUUACUGCUCUUUGAAAUGAUAAUUCCAGUUUUCA: 0.92 ratio
GGGCGGCCCGUGGGGGAAUUCCCUGCCUUGGCCUUACCUCCCCUUCCUGCCACUUGCCCCUAGUUAUUUUUUUUUUUACCACCAUGUGAUUAAGGUCGGCGCUGCCUCCCCCGACCCACU: 6.69 ratio
UCUUGGAUGACUUUGGACGUCCGUACUGCUUAGGUGCGGUGACUUCGUUCGGCCUUGCAGACUUGUUCUCGUCUCAGCCCAAGGCCUCUCCCGCAACCAUGCUCCGCCUGAUCGUCAGUC: 0.381 ratio
AAAUAUACUUCAUGCCAUGGACUCCGUAUCGCACCGAUACUUUGAUAGAAUAUGCUUCUUUAGAGGACUUCCAAAAUGGACGCCAGCAGACGACGUAUAAACUGCCAAAUAGAGUGGAUG: 0.827 ratio
UGCAUUAUUUGACCAGAGUUGAGGUGACAGAAUUCGAAGACAUCAAAUCAGGUUACAGAAUAGAUUUUUAUUUUGAUGAGAAUCCAUACUUUGAAAAUAAAGUUCUCUCCAAAGAGUUUC: 0.656 ratio
